Published values collected from several papers.
Every numbered part comes from another study and shows a few of its results, in no order. Numbers after ± are the reported error.
Sequence of UniProt Q86U86 (whole entry, looked up): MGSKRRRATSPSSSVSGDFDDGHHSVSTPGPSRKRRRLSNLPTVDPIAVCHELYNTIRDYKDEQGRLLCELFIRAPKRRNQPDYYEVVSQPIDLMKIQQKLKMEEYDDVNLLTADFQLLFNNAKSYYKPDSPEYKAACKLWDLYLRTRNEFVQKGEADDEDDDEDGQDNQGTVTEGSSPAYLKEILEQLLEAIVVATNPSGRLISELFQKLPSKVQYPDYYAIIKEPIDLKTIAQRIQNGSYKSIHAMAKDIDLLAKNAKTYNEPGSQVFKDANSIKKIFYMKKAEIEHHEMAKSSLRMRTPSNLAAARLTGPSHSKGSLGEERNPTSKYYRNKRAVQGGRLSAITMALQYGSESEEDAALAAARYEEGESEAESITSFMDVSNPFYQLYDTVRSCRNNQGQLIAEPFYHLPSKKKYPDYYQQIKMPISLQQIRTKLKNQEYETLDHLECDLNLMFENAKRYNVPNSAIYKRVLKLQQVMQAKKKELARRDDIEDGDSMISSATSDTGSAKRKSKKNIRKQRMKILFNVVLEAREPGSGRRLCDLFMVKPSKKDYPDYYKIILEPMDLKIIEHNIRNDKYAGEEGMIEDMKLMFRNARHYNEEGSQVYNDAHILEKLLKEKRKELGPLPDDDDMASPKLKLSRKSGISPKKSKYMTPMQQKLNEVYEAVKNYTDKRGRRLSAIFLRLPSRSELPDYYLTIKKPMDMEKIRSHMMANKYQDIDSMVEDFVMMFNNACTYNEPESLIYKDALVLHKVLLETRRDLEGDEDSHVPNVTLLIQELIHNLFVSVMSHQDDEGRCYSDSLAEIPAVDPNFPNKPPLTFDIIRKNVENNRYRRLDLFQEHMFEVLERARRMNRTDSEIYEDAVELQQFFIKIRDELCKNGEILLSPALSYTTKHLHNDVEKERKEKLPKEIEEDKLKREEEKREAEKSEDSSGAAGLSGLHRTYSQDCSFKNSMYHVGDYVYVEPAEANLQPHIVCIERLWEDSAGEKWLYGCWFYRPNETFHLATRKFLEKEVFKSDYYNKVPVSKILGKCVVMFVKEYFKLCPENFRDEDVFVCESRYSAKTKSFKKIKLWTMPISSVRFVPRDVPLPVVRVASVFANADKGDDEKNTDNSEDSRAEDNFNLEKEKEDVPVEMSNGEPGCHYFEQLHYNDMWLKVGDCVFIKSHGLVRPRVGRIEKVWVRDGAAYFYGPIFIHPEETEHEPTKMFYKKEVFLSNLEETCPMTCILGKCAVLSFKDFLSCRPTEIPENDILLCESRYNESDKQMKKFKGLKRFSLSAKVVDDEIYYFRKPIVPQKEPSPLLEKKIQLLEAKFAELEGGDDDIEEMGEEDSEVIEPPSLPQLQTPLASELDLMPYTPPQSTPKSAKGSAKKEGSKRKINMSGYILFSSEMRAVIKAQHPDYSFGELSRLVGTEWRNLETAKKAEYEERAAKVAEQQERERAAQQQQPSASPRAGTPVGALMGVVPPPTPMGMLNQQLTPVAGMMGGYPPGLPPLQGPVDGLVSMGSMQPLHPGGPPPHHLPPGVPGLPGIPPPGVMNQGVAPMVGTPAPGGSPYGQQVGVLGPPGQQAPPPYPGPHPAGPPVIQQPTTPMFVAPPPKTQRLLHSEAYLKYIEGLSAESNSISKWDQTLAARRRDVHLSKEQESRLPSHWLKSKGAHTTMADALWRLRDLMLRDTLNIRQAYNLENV
Sequence of UniProt P42685 (whole entry, looked up): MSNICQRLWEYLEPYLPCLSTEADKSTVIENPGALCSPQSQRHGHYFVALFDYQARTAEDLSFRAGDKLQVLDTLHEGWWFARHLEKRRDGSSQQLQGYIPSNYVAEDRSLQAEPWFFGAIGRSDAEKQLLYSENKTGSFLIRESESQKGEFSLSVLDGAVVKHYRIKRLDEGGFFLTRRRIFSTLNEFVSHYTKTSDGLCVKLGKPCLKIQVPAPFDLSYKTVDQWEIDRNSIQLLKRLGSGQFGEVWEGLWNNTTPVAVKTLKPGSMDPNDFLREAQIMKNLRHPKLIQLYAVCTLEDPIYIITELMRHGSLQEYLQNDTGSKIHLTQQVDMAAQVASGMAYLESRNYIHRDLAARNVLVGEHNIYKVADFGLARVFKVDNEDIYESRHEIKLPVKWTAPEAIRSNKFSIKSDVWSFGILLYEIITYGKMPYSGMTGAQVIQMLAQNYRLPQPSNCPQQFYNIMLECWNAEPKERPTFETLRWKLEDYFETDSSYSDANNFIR
Sequence of UniProt O00444 (whole entry, looked up): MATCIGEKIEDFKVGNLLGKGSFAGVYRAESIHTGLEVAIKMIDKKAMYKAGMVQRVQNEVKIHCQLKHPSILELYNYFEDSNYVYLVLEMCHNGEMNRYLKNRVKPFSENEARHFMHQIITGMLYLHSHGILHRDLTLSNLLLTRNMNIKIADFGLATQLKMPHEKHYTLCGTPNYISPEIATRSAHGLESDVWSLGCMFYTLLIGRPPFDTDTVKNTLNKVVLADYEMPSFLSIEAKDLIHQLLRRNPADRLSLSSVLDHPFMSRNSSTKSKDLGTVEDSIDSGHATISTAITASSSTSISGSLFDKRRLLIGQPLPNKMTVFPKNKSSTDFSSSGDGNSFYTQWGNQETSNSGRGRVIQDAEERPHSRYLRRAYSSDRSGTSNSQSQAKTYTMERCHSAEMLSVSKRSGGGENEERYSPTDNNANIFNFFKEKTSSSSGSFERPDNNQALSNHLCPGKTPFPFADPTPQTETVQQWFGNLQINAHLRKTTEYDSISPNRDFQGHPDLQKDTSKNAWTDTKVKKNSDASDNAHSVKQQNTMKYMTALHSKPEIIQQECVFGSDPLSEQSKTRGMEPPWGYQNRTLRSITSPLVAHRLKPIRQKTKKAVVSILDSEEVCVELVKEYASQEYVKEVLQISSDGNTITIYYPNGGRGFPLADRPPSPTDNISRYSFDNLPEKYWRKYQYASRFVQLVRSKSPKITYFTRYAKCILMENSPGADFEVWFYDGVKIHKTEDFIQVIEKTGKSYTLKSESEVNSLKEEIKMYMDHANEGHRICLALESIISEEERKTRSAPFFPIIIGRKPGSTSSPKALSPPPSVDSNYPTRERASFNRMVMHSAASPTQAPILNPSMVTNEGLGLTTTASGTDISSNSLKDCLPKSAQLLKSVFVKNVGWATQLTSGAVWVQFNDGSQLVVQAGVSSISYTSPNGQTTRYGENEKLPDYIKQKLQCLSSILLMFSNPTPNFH
Sequence of UniProt Q02156 (whole entry, looked up): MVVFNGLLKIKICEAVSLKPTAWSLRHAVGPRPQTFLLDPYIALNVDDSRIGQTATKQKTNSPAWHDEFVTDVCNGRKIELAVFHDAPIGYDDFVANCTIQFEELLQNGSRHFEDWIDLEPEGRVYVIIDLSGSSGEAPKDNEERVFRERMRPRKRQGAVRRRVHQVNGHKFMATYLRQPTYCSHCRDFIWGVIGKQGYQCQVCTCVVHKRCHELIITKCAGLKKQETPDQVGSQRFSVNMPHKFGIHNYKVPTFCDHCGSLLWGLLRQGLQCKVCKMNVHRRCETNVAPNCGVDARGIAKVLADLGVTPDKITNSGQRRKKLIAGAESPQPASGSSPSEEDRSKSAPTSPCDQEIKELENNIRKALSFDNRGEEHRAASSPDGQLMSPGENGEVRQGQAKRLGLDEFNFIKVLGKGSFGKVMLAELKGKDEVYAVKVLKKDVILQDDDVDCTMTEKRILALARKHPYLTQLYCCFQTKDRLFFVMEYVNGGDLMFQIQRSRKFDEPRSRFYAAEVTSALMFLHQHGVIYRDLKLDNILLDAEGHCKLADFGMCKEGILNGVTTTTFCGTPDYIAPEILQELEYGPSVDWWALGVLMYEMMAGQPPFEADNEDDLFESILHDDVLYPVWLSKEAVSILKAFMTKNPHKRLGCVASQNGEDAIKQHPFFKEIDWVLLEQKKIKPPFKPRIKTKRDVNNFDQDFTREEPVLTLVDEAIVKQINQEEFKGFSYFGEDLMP

Study 1 — effect on: binding; method: thermal shift; concentration: 10 µM; reading: higher = stronger binding; quantity: delta Tm
SMILES: Cc1cnc(Nc2ccc(OCCN3CCCC3)cc2)nc1Nc1cccc(S(=O)(=O)NC(C)(C)C)c1
Peregrin, isoform A (BRPF1, Homo sapiens, UniProt P55201): 0 °C
BRPF3 (Homo sapiens, UniProt Q9ULD4): -0.01 ± 0.07 °C
SP140L, PHD-bromodomain (Homo sapiens, UniProt Q9H930): 0.03 ± 0.13 °C
Transcription intermediary factor 1-alpha, PHD-bromodomain (TRIM24, Homo sapiens, UniProt O15164): 0.01 ± 0.14 °C
Protein polybromo-1, BD4 (PBRM1, Homo sapiens, UniProt Q86U86): -0.06 ± 0.26 °C

Study 2 — effect on: cell-free assay; method: competition with immobilised ligand; concentration: 1 µM; quantity: remaining binding
Structure (SMILES): COc1ccc2cc(OCC3(C(=O)O)CN(C(=O)c4ccc(F)cc4)C3)ccc2c1
IKBKB (Homo sapiens, UniProt O14920): 100%
PRKCE (Homo sapiens, UniProt Q02156): 100%
MAK (Homo sapiens, UniProt P20794): 100%
FRK (Homo sapiens, UniProt P42685): 100%
PLK4 (Homo sapiens, UniProt O00444): 82%

Study 3 — effect on: enzyme activity; action: inhibitor; concentration: 0.5 µM; relative to: control; quantity: remaining activity
Target: Protein kinase C theta type (PRKCQ, Homo sapiens, UniProt Q04759)
Sequence of UniProt Q04759 (whole entry, looked up): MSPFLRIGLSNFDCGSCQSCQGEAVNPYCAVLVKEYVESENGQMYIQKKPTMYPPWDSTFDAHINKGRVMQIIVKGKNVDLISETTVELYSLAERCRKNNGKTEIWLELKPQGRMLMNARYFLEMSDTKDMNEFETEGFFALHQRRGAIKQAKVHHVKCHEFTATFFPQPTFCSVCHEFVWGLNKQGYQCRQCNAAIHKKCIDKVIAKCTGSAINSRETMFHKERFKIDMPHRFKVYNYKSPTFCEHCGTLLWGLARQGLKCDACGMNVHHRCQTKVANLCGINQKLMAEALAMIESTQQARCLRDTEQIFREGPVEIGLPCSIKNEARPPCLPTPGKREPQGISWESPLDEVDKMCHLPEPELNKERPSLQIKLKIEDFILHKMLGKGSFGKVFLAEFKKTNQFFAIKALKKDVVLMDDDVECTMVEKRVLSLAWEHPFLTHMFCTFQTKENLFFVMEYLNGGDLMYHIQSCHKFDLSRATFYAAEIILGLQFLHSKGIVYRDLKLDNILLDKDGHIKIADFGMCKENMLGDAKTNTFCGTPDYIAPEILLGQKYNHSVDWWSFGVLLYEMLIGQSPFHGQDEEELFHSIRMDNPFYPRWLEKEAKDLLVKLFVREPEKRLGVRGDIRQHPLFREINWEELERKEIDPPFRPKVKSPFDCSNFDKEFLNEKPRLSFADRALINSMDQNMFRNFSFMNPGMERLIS
NCCNc1ncc(C(N)=O)c(Nc2cccc(C(F)(F)F)c2)n1: 109%
Nc1ccc2ncnc(NCCc3ccc(Oc4ccccc4)cc3)c2c1: 108%
O=S(=O)(c1cccc2cnccc12)N1CCCNCC1: 89.9%
Cn1c2ccccc2c2c3c(c4c5ccccc5n(CCC#N)c4c21)CNC3=O: 76.3%
O=C1NC(=O)C(c2cn(CCCO)c3ncccc23)=C1c1cnccn1: 81.7%
Oc1ccc(-c2nc(-c3ccncc3)c(-c3ccc(F)cc3)[nH]2)cc1: 115%
CNC(=O)c1cc(Oc2ccc(NC(=O)Nc3ccc(Cl)c(C(F)(F)F)c3)cc2)ccn1: 100%
CCOC(=O)c1c(C)[nH]c(/C=C2\C(=O)Nc3ccccc32)c1C: 116%
Nc1ncnc2n[nH]c(Nc3ccc(F)cc3)c12: 103%
O=c1c2ccccc2[nH]c(=S)n1CCN1CCC(=C(c2ccc(F)cc2)c2ccc(F)cc2)CC1: 92.2%
COc1cc2ncnc(Nc3ccc(F)c(Cl)c3)c2cc1OCCCN1CCOCC1: 85.9%
Cc1ccc(NC(=O)c2ccc(CN3CCN(C)CC3)cc2)cc1Nc1nc(-c2cccnc2)cs1: 103%
CN(C)c1ccc(C=C2C(=O)Nc3ccccc32)cc1: 104%
COc1cc2nccc(Oc3ccc(NC(=S)NC(=O)c4ccccc4C)cc3)c2cc1OC: 107%
O=C(Nc1cccc(Nc2cc(Nc3cccc(C(F)(F)F)c3)ncn2)c1)C1CC1: 87.8%
O=C(O)c1ccc2c3c1cccc3c(=O)n1c3ccccc3nc21: 117%

Study 4 — organism: Plasmodium berghei; action: inhibitor; cells: Huh-7; strain: GFP-expressing, liver stage; concentration: 10 µM; time: 24 h; relative to: untreated control; quantity: infection rate
O=C1c2ccccc2C(=O)C1c1ccccc1: 97%
CN1Cc2c(N)cccc2C(c2ccccc2)C1 (stereo not drawn): 105%
CC[C@]1(O)C[C@H]2CN(CCc3c([nH]c4ccccc34)[C@@](C(=O)OC)(c3cc4c(cc3OC)N(C=O)[C@H]3[C@@](O)(C(=O)OC)[C@H](OC(C)=O)[C@]5(CC)C=CCN6CC[C@]43[C@@H]65)C2)C1: 75%
O=C1C(O)=C(O)C(=O)C(O)=C1O: 92%
CO[C@H]1/C=C/O[C@@]2(C)Oc3c(C)c(O)c4c(O)c(c(/C=N/N5CCN(C)CC5)c(O)c4c3C2=O)NC(=O)/C(C)=C\C=C\[C@H](C)[C@H](O)[C@@H](C)[C@@H](O)[C@@H](C)[C@H](OC(C)=O)[C@@H]1C: 88.9%
O=C(O)c1cc(O)c2c(c1)[C@H]([C@H]1c3cc(C(=O)O)cc(O)c3C(=O)c3c(O[C@@H]4O[C@H](CO)[C@@H](O)[C@H](O)[C@H]4O)cccc31)c1cccc(O[C@@H]3O[C@H](CO)[C@@H](O)[C@H](O)[C@H]3O)c1C2=O: 81%
Cc1ncc([N+](=O)[O-])n1CC(O)CCl (stereo not drawn): 106%

Repeated from above (study 3):
O=S(=O)(c1cccc2cnccc12)N1CCCNCC1: 89.9%
Cn1c2ccccc2c2c3c(c4c5ccccc5n(CCC#N)c4c21)CNC3=O: 76.3%
O=C1NC(=O)C(c2cn(CCCO)c3ncccc23)=C1c1cnccn1: 81.7%
